Measured values pooled from the literature.
± gives the spread as reported. Converted amounts (≈) assume the structure as drawn.

Compound | test | system | conditions | scale | measurement | result
CCCC1OC2CC3C4CCC5=CC(=O)C=CC5(C)C4C(O)CC3(C)C2(C(=O)COC(=O)CN(CC)CC)O1 (centres unmarked) | – | rat plasma diluted 5.7-fold | 200 µg/mL, 37 °C, 2% DMSO | – | time to complete hydrolysis | ≤ 24 h
NCC(=O)N1CCC[C@H]1C(=O)N1C[C@H](O)C[C@H]1C(=O)O | potentiometric titration | water | 40 °C, 0.15 mol/dm3 NaCl | – | pKa2 | 2.71
CC1(C)C(=CC=C(C=CC2=[N+](CCC[N+](C)(C)C)c3ccc(S(=O)(=O)[O-])cc3C2(C)C)Oc2ccc(CCC(=O)[O-])cc2)N(CCC[N+](C)(C)C)c2ccc(S(=O)(=O)[O-])cc21 | – | 100% serum | pH 7.4 | – | quantum yield | 19.4%
CC[C@H](C)[C@H](NC(=O)[C@H](CC(C)C)NC(=O)[C@H](Cc1c[nH]c2ccccc12)NC(=O)[C@H](C)NC(=O)[C@@H](NC(=O)[C@H](Cc1ccccc1)NC(=O)[C@H](CC(=O)O)NC(=O)[C@H](CCCNC(=N)N)NC(=O)[C@H](C)NC(=O)[C@H](C)NC(=O)[C@H](CC(C)C)NC(=O)[C@H](C)NC(=O)[C@H](CC(=O)O)NC(=O)[C@H](CC(C)C)NC(=O)[C@@H](NC(=O)[C@@H](NC(=O)[C@H](C)NC(=O)[C@H](CC(C)C)NC(=O)[C@H](CCC(=O)O)NC(=O)[C@H](CO)NC(=O)[C@H](CO)NC(=O)[C@H](Cc1ccccc1)NC(=O)[C@@H](NC(=O)CNC(=O)[C@H](CCC(=O)O)NC(=O)CNC(=O)[C@@H](N)Cc1c[nH]cn1)[C@@H](C)O)[C@@H](C)O)[C@@H](C)CC)[C@@H](C)CC)C(=O)N[C@@H](C)C(=O)N[C@H](C(=O)N[C@@H](CCCCN)C(=O)N[C@H](C(=O)N[C@H](C(=O)N[C@@H](CC(=O)O)C(=O)N[C@@H](CCCCN)C(=O)O)[C@@H](C)O)[C@@H](C)CC)[C@@H](C)O | immunoaffinity LC-MS/MS | healthy human subjects, plasma | subcutaneous, 10 mg once weekly, day 36 after 6 doses, steady state, geometric mean | – | AUClast | 0.259 µM·h
COc1cc2c(cc1OC)CN(CCCCn1ccc3cc(OCC[18F])ccc31)C2 | – | male CD-1 mouse, heart | intravenous, 15 min | – | tracer uptake | 3.54 %ID/g
CN(C)c1ccc(-c2nc3ccc(OCCCCCN4CCN5CCN(CC4)CC(=O)[O][Al]([18F])[O]C(=O)C5)cc3s2)cc1 | – | ICR mouse | intravenous, dose not given, 2 min | – | stomach uptake | 1 ± 0.18 % injected dose/organ
NCCCC(=O)OCC(=O)c1ccc(O)c(C(F)(F)F)c1.O=C(O)C(F)(F)F | photolysis at 300 nm | ammonium acetate buffered acetonitrile-water | pH 5.0, 0.01 mol/L buffer | – | quantum yield of GABA release | 0.23
NCCC(=O)N1Cc2ccccc2-c2c(nnn2-c2cn(C3OC(CO)C(O)C3O)c(=O)[nH]c2=O)-c2ccccc21 (mixture of isomers) | – | methanol | – | – | brightness | 0.09 M⁻¹ cm⁻¹
CN[C@@H](CCOc1cccc2ccccc12)c1ccccc1 | – | healthy male humans, plasma | oral, 60 mg of dapoxetine | – | terminal half-life | 15.2 ± 4.16 h
O=S(=O)(O)c1cc(O)c(O)c(S(=O)(=O)O)c1 | Stokes-Einstein equation | 1 M H2SO4 | – | – | hydrodynamic radius | 5.8 Å
Cn1c(=O)oc2ccc(-c3ccc(CC(C#N)NC(=O)C4CNCCCO4)c(F)c3)cc21 (centres unmarked) | item: skin exfoliation | human | 40 mg, treatment-related, single dose, fasted | – | subjects with adverse event | 0%
CC(C)[C@H](NC(=O)CNC(=O)[C@H](CCC(N)=O)NC(=O)[C@H](C)N)C(=O)O | LC-MS/MS | human, plasma | intravenous, 20 mg/kg three times daily, day 3, first dose, 10 min infusion, geometric mean | – | AUC(0-last) | 565 ng·h/mL
COc1cc(NC(C)=O)c2c(c1O)-c1c(OC)c(OC)cc3c1C(C2)N(C)CC3 (centres unmarked) | – | rat brain homogenate | 5 µg/mL, time not given, three freeze-thaw cycles | – | remaining compound | 101 ± 4%
Nc1ccn([C@@H]2O[C@H](COP(=O)(O)O)[C@@H](O)[C@H]2F)c(=O)n1 | – | human liver S9 | 10 µM, 1 h, pH 7.4, 37 °C | – | metabolic loss | ~20%
CC(C)[C@H](NC(=O)[C@@H]1CCCN1C(=O)[C@H](CCCNC(=N)N)NC(=O)[C@H](CS)NC(=O)[C@H](Cc1c[nH]c2ccccc12)NC(=O)[C@H](CCCNC(=N)N)NC(=O)[C@@H](Cc1ccccc1)NC(=O)[C@H](Cc1c[nH]cn1)NC(=O)[C@H](CCC(=O)O)NC(=O)[C@H](CS)NC(=O)[C@H](CS)NC(=O)CNC(=O)[C@@H]1CC(=O)N[C@@H](CCCNC(=N)N)C(=O)NCC(=O)N[C@@H](CC(=O)O)C(=O)N[C@H](Cc2ccc(O)cc2)C(=O)N1)C(N)=O [technetium-99m labelled] | – | C57 mouse, female, B16/F1 melanoma | intravenous, 0.037 MBq, 4 h | reference: tumour over liver | tumour to tissue ratio | 2.91
CC[C@H](C)[C@H](NC(=O)[C@H](CC(C)C)NC(=O)[C@H](Cc1c[nH]c2ccccc12)NC(=O)[C@H](C)NC(=O)[C@@H](NC(=O)[C@H](Cc1ccccc1)NC(=O)[C@H](CC(=O)O)NC(=O)[C@H](CCCNC(=N)N)NC(=O)[C@H](C)NC(=O)[C@H](C)NC(=O)[C@H](CC(C)C)NC(=O)[C@H](C)NC(=O)[C@H](CC(=O)O)NC(=O)[C@H](CC(C)C)NC(=O)[C@@H](NC(=O)[C@@H](NC(=O)[C@H](C)NC(=O)[C@H](CC(C)C)NC(=O)[C@H](CCC(=O)O)NC(=O)[C@H](CO)NC(=O)[C@H](CO)NC(=O)[C@H](Cc1ccccc1)NC(=O)[C@@H](NC(=O)CNC(=O)[C@H](CCC(=O)O)NC(=O)CNC(=O)[C@@H](N)Cc1c[nH]cn1)[C@@H](C)O)[C@@H](C)O)[C@@H](C)CC)[C@@H](C)CC)C(=O)N[C@@H](C)C(=O)N[C@H](C(=O)N[C@@H](CCCCN)C(=O)N[C@H](C(=O)N[C@H](C(=O)N[C@@H](CC(=O)O)C(=O)N[C@@H](CCCCN)C(=O)N[C@@H](CCCCN)C(=O)O)[C@@H](C)O)[C@@H](C)CC)[C@@H](C)O | immunoaffinity LC-MS/MS | healthy human subjects, plasma | subcutaneous, 5 mg once weekly, day 36 after 6 doses, steady state, geometric mean | – | AUClast | 0.00659 µM·h
Cc1[nH]c(/C=C2\C(=O)Nc3ccc(F)cc32)c(C)c1NC(=O)CCN1CCN(C)CC1 | – | dog plasma | 1.00 ng/mL, 30 d frozen, -80 °C | – | accuracy deviation | -1.4%
NC12CNCCNCC(NCc3ccc(CNC(=O)CCCC(=O)NCc4ccc(-c5nncnn5)cc4)cc3)(CNCCNC1)CNCCNC2.[64Cu+2] | OLINDA dosimetry | stomach wall | pretargeting, 48 h interval | – | absorbed dose | 0.0385 rad/mCi
Cc1cc(C)c(S(=O)(=O)N(CC(=O)O)c2ccc(Nc3ccnc(N4CCCC4)n3)cc2)c(C)c1 | – | HCT-116 xenograft mice, plasma | intraperitoneal, 100 mg/kg single dose | – | clearance | 29.9 mL/min/kg
Cc1ncc(COP(=O)([O-])O)c(/C=N\NC(=O)Cn2c(=O)c(Cc3ccccc3)nc3ccccc32)c1O.[Na+] | MTT | rat primary colonocytes, Albino rat, male | 72 h, concentration at 100% viability | – | safe concentration | 0.034 ± 0.001 µM
Cc1ccc(/N=N/c2c(O)ccc3ccccc23)c(C)c1 | – | rat whole blood | 5.0 µg/L, 30 days, -20 °C, long-term storage | – | measured concentration | 4.99 µg/L

Compound | test | system | conditions | scale | measurement | result
CCCC[C@H](NC(=O)CNC(=O)CNC(=O)CN1CCN(CC(=O)O)CCN(CC(=O)O)CCN(CC(=O)O)CC1)C(=O)N[C@H]1CC(=O)NCCCC[C@@H](C(N)=O)NC(=O)[C@H](Cc2c[nH]c3ccccc23)NC(=O)[C@H](CCCNC(=N)N)NC(=O)[C@@H](Cc2ccccc2)NC(=O)[C@H](Cc2c[nH]cn2)NC1=O [copper-64 labelled] | – | female C57 mouse, B16/F1 melanoma | intravenous, 0.037 MBq, 4 h | reference: tumour over liver | uptake ratio | 0.55
Oc1cccc(-c2cccc(O)n2)n1.[Cl-].[Cl-].[Ru+2].c1cnc2c(c1)ccc1cccnc12.c1cnc2c(c1)ccc1cccnc12 | shake flask | octanol/phosphate buffer | pH 7.00 | – | logD | 1.5
CC(=O)N[C@H](CC(=O)O)C(=O)N[C@H](Cc1c[nH]c2ccccc12)C(=O)N[C@H](Cc1ccccc1)C(=O)N[C@H](CCCCN)C(=O)N[C@H](C)C(=O)N[C@H](Cc1ccccc1)C(=O)N[C@H](Cc1ccc(O)cc1)C(=O)N[C@H](CC(=O)O)C(=O)N[C@H](CCCCN)C(=O)N[C@@H](C(=O)N[C@H](C)C(=O)N[C@H](CCC(=O)O)C(=O)N[C@H](CCCCN)C(=O)N[C@H](Cc1ccccc1)C(=O)N[C@H](CCCCN)C(=O)N[C@H](CCC(=O)O)C(=O)N[C@H](C)C(=O)N[C@H](Cc1ccccc1)C(N)=O)C(C)C | – | statin-treated high-risk CHD women, plasma | oral, 300 mg daily, day 13, 0 to 8 h, mean, undetectable set to 0 | – | AUC(0-t) | 47.4 ng·h/mL
CCCC(CCC(=O)O)NC(=O)c1ccc2c(c1)OCO2 (centres unmarked) | – | male Sprague-Dawley rats, plasma | oral, 50 mg/kg of parent drug | reference: 50 over 20 mg/kg dose | Cmax ratio | 2.34
C[C@H]1C[C@@H](Oc2cccc(F)n2)CCN1Cc1cnc(N[11C](C)=O)s1 | ultrafiltration | rhesus monkey, plasma | pre-blocked condition | – | plasma free fraction | 8.38 ± 0.17%
CCOc1c(C(C)(C)O)sc2cnc(Nc3ccc(N4CCC(N5CC6(COC6)C5)CC4)cc3OC)nc12 | – | New Zealand rabbit, male, isolated Purkinje fibres | 30 µM, 45 min, pacing 0.25 Hz | – | APD50 change | -18 ± 5%
CN1CCC[C@]1(C)/C=C/S(=O)(=O)NC(=O)Nc1c2c(cc3c1CCC3)CCC2 | – | human, plasma | oral, 50 mg twice daily, day 14, tau 12 h, multiple ascending dose | – | AUC(0-tau) | 51200 ng·h/mL
CC(C)CCN(c1nc(C#N)nc(NC2COC2)n1)C(C)c1ccc(F)cc1 (centres unmarked) | – | female CD-1 mice | intraperitoneal, 10 mg/kg, 7 h | – | plasma concentration | 11.4 ng/mL
COCCOCCOCCOCCOCCOCCOCCOCCOCCOCCOCCOCCNC(=O)CCC1(Cc2ccccc2)c2ccccc2-c2ccc(-c3sc(-c4c5c(c(-c6sc(-c7ccc8c(c7)C(CCC(=O)NCCOCCOCCOCCOCCOCCOCCOCCOCCOCCOCCOCCOC)(Cc7ccccc7)c7ccccc7-8)c7c6OCCO7)c6nsnc46)N=S=N5)c4c3OCCO4)cc21 (centres unmarked) | DLS and TEM | aqueous solution | – | – | particle size | 220 ± 80 nm
COC(=O)c1ccc(-c2cn(Cc3cc(Cl)ccc3O[11CH3])nn2)cc1 | PET, one-tissue compartment model | rhesus monkey, brain Midbrain | dose not given | – | distribution volume | 0.697 mL/cm³
Cc1ccc(-c2ccc(-c3cc4sccc4o3)cn2)nc1 | – | MeCN | together with: quinine bisulfate reference | – | fluorescence quantum yield | 0.6
Cc1cc(O)cc(O)c1C(=O)c1c2c3c(c(O)cc(C)c3oc1=O)C(=O)c1c(O)cc(O)cc1-2 | – | mouse, bone marrow | intraperitoneal, 400 mg/kg, 30 h | – | PCE/NCE ratio | 0.81 ± 0.2
COc1ccc2cc(-c3ccc(-c4ccc(C)cn4)nc3)oc2c1 | TCSPC | dioxane | – | – | radiative decay rate constant | 0.53 ns⁻¹
CC(C)(O)c1ncc([S@](N)(=O)=NC(=O)Nc2c3c(cc4c2CCC4)CCC3)s1 | – | healthy human, fed | oral, 25 mg twice daily, day 1, tablet formulation, geometric mean | – | AUC(0-tau) | 14100 ng·h/mL
NCCCC(=O)OCC(=O)c1ccc(O)cc1F.O=C(O)C(F)(F)F | photolysis, item: GABA appearance | unbuffered water | – | – | quantum yield | 0.27
O=c1c2ccccc2[se]n1CCCCCCn1[se]c2ccccc2c1=O | – | 10% Soluplus in water | 24 h, 25 °C, 100 mg/mL | – | solubility | 515 ± 8 µg/mL (≈ 1080 µM)
NC[C@@H](C(=O)Nc1ccc(-c2cn[nH]c2)cc1)c1ccccc1 | OECD 405 | New Zealand White rabbit | topical, 0.1 %, 48 h, day 3 | direction not given | conjunctival redness score | 0
N=C(N)NCCC[C@@H]1NC(=O)[C@H](Cc2c[nH]c3ccccc23)NC(=O)[C@@H](CC2CCCCC2)NC(=O)[C@@H]2CCCN2C(=O)[C@@H](NC(=O)CCc2ccccc2)CCCNC1=O | – | C57BL/6J mice, brain | intravenous, 1 mg/kg, two-compartment model | – | apparent peripheral volume (V2/F) | 0.41 µg/(ng/g)
NCCCC(=O)OCC(=O)c1ccc(O)c(F)c1F.O=C(O)C(F)(F)F | photolysis, item: GABA appearance | unbuffered water | – | – | quantum yield | 0.24
COc1cc(OC)cc(C2=C3C(C)=C(I)C(/C=C/c4cccs4)=[N+]3[B-](F)(F)n3c(/C=C/c4cccs4)c(I)c(C)c32)c1 | – | DMSO | – | – | emission maximum | 692 nm

Repeated from above:
Compound | test | system | conditions | scale | measurement | result
C[C@H]1C[C@@H](Oc2cccc(F)n2)CCN1Cc1cnc(N[11C](C)=O)s1 | ultrafiltration | rhesus monkey, plasma | pre-blocked condition | – | plasma free fraction | 8.38 ± 0.17%
CCOc1c(C(C)(C)O)sc2cnc(Nc3ccc(N4CCC(N5CC6(COC6)C5)CC4)cc3OC)nc12 | – | New Zealand rabbit, male, isolated Purkinje fibres | 30 µM, 45 min, pacing 0.25 Hz | – | APD50 change | -18 ± 5%
CN1CCC[C@]1(C)/C=C/S(=O)(=O)NC(=O)Nc1c2c(cc3c1CCC3)CCC2 | – | human, plasma | oral, 50 mg twice daily, day 14, tau 12 h, multiple ascending dose | – | AUC(0-tau) | 51200 ng·h/mL
CC(C)CCN(c1nc(C#N)nc(NC2COC2)n1)C(C)c1ccc(F)cc1 (centres unmarked) | – | female CD-1 mice | intraperitoneal, 10 mg/kg, 7 h | – | plasma concentration | 11.4 ng/mL
